Measured values pooled from the literature.
Every numbered part comes from another study and shows a few of its results, in no order. Substitutions count along the parent as printed.

Block 1 — technique: RNA Bind-n-Seq; molecule type: RNA; matrix: in vitro; tested at: 365 nM; reference: no-protein control; direction: higher = stronger binding; measurement: RBNS enrichment (R)
Target: RNA binding protein fox-1 homolog 2, RRM domain, GST-SBP tag (RBFOX2, Homo sapiens, UniProt O43251-10, residues 100-194)
Notes: natural RNA segment, single round, ends assumed
Shared flanks, not repeated: GGGAGUUCUACAGUCCGACGAUC … UGGAAUUCUCGGGUGCCAA
Target sequence (chain): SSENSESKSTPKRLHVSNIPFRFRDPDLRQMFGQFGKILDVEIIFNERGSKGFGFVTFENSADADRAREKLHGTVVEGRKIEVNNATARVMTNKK
GUAGCCCUUUUGAUCAAAUUGGUCUUCACCUGCUUGCCUCUGAGGCUCCAUCCUUCUACUUCAACCCUCAGAGGAGCAGACAGGUGCAAAUAAACAACAGACUUUAUUAA: 0.487
UCUGAAUAGAGGAAGAGAGAACCCCACAACAGCCAUACACGGGUAGUGUCCCUUUCCUCUCAGAGCCAAGUUCCAUUCCUGGAGUUAUCCUCUAGGCAUGAAGCCUUCCA: 0.305
GGCUGUUAACCUAUGAUUGUAAAGUAGCUGUAAGAAUUUCCCAGUGAAAUAAAAAAAAAUUUUAAGUGUUCUCGGGGAUGCAUAGAUUCAUCAUUUUCUCCACCUUAAAA: 0.632
ACCUCCUUGGGCUAUAUUUUCUCUCCUCGAGUUGCUCCUCAUGGCUGGGCUCAUUUCGGUCCCUUUCUCCUUGGUCCCAGACCUUGGGGGAAAGGAAGGAAGUGCAUGUU: 0.661
UACAUCCUUGUUUCUGUCUGGUAGAGAGUUUGCUUCUCAAAUGGAGCAAACAAAUUUGAUUAUUUUUUCAUUGUUAAAUAGGCAACAUGACCAGAAAGGAUGGAAUGGCU: 0.449
GUCAGCCACAUACCCCCUCUCGCAGUGUUCUGAGGAAAGGAGCCUUCGGCAUAGACUCGUGUAUUUUACCAGCCUAUAAUCGUGCUGAGUGUUGGUUUCCUGCCCCUCCU: 0.289
UGUUCUGUGCCUGCCUGCGGUGAUGUAGCCAGAAGCACGUACUCAGGUCAUCAAGCCGAGAGGGCGUCAAAGAGGAAGCCUGGGCUGGGAUCCUUAGGCUCAGCUGUCUG: 0.724
UUAAGUUGAGGAAGAACUGUCUCCUCUUCCACCUUUCUACAGAAUGCCUCUUCUUUACCUCCCGCCUCUAUGGGGAUGACUUUUGAGGCCCCACCUGGGUCAAGGGUUCA: 0.278

Block 2 — target: CCNB1, cyclin fold, Cln2 fusion (human); technique: yeast growth competition, sequencing; matrix: yeast; notes: strong parent motif; reference: not given; direction: higher = stronger binding; measurement: normalised enrichment score
Parent: PKN2 docking peptide (human); VSAVQKLDFSDTM; partner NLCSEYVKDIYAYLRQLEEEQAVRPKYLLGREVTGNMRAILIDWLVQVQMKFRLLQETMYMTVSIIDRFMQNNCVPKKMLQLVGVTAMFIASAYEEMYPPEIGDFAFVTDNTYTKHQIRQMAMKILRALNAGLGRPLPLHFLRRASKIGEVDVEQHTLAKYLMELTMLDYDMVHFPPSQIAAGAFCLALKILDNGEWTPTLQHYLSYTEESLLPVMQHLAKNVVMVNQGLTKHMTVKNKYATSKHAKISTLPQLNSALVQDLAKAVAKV
K6S: 1.36
S2I: 1.35
A3K: 0.284
V1Q: 2.55
L7G: -0.413
F9Y: 1.21
V4S: 0.499
D11W: 1.27
V4H: -0.0481
D11M: 1.02
T12K: 1.26
S10G: 2.41
S10L: 0.909
F9D: 0.312
K6D: -0.175
T12R: 1.62
V1W: 2.7
A3W: 1.66
D11R: 0.61
V1R: 2.12
V1L: 2.02
S10Y: 1.46
D11P: 1.17
F9P: -0.127
L7M: 0.174

Block 3 — technique: universal PBM; molecule type: double-stranded DNA, one strand shown; matrix: in vitro; tested at: not given; direction: higher = stronger binding; measurement: E-score
Target: Sal-like protein 4, full length isoform B (SALL4, Homo sapiens, UniProt Q9UJQ4-2, residues 1-616)
Notes: 8-mer, flanks averaged, mean of replicates
GCATGCTA: -0.0586
AAATTACG: 0.202
CGAGTCAG: -0.147
AAGCTTGA: 0.00264
CAGCATTC: -0.0276
GGCTTTAA: 0.0695
CGCGACCA: -0.267
ATGATGGA: 0.132
ACTTTCTA: 0.226
CAAAGAAG: -0.0155
ACTTTTCA: 0.132
TAACGTAA: 0.224
CACTCACC: -0.122
CTGACCTA: -0.0325
ACTTAATG: 0.24
CGTTCCGA: -0.208
ATGCGGCC: -0.152
CCTGCCCC: -0.311
ACAAATCA: 0.218

Block 4 — technique: RNA Bind-n-Seq; molecule type: RNA; matrix: in vitro; tested at: 1 µM; notes: whole 134-nt RNA, ends assumed; with: 150 mM KCl; reference: input library; direction: higher = stronger binding; measurement: log2 enrichment
Target: Ras GTPase-activating protein-binding protein 1, RRM domain (G3BP1, Homo sapiens, UniProt Q13283)
Sequence of UniProt Q13283 (whole entry, looked up): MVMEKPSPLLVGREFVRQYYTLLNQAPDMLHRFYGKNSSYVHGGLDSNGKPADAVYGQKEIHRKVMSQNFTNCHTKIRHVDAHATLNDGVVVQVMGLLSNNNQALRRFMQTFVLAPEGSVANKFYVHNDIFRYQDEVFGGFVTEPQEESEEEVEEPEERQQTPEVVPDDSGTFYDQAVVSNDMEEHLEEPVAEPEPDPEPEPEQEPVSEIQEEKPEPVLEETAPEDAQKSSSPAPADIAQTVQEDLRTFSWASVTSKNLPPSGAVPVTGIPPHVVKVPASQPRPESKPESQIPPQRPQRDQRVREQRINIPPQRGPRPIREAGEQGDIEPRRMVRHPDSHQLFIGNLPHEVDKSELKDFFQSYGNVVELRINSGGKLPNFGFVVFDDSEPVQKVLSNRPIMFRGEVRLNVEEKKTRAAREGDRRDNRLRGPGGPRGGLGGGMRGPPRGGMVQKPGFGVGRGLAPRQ
Shared flanks, not repeated: GGGAGUUCUACAGUCCGACGAUC … UGGAAUUCUCGGGUGUCAAGG
GCAGGAAGUAAAAACAAAUGGAAAUGCUUCGGAUAGUGGCAGGGGUGGGGGUUGCUCAGGAAAGGGUGGGAUGGGAGUGGGUAAAGAGUU: 0.743
CACAGACAACACGCACCCUCACAGACACAGAGGGAAGGGGUUGGGAUGGGGACAGGGUGCACAGCAGGGCGGGGUAGGACCCCAGCCCCU: 0.167
UCCUGUGCUACACAUCGUAUGUACCGAAUCGGGGUUUUUUGGGUUUUUUGGUUUUUUGGAAAGUAUUAUGUUACGCCGUUCGGAUCUGCA: -0.133
CACAGACAACACGCACCCACACAGACACAGAGGGAAGGGGUUGGGAUGGGGACAGGGUGCACAGCAGUGCGGGGUAGGACCCCAGCCCCU: -0.25
CUCAAGUCCUGUGCUACACAUCGUAUGUACCGAAUCGGGUGGGGUGGGGUGGGAAAGUAUUAUGUUACGCCGUUCGGAUCUGCACUUCCA: 0.679
UCCUCAAGUCCUGUGCUACACAUCGUAUGUACCGAAUCGGGUGGGGUGGUGGAAAGUAUUAUGUUACGCCGUUCGGAUCUGCACUUCCAG: -0.127
UCAAGUCCUGUGCUACACAUCGUAUGUACCGAAUCGGAAAGGUUUUUUUGGAGGAAAGUAUUAUGUUACGCCGUUCGGAUCUGCACUUCC: -0.301
CAAGUCCUGUGCUACACAUCGUAUGUACCGAAUCGGUUUGGAAAGGUUUUUUUGGAAAGUAUUAUGUUACGCCGUUCGGAUCUGCACUUC: -0.282
UAACUUUAGAGGAGGAUCUGAUGGAUAUGGCAGUGGACGUGGAUUUGGGGAUGGCUAUAAUGGGUAUGGAGGAGGACCUGGAGGUGACAA: -0.345

Repeated from above (block 2):
S10L: 0.909
F9D: 0.312
K6D: -0.175
T12R: 1.62
V1W: 2.7
A3W: 1.66
